Experimental data from different studies.
Protocols differ between the studies behind these lines. pEC50, pKd: −log10 of the molar value.
UniProt P48729, sequence (whole entry, looked up): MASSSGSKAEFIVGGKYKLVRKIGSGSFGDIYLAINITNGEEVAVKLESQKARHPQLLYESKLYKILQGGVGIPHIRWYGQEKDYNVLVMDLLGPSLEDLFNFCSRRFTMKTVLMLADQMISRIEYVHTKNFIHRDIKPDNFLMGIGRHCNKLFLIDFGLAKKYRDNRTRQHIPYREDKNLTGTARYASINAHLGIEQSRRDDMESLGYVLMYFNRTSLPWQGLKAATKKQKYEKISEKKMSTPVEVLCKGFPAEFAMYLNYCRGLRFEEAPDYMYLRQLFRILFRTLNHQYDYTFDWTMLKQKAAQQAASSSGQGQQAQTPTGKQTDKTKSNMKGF
UniProt P48730, sequence (whole entry, looked up): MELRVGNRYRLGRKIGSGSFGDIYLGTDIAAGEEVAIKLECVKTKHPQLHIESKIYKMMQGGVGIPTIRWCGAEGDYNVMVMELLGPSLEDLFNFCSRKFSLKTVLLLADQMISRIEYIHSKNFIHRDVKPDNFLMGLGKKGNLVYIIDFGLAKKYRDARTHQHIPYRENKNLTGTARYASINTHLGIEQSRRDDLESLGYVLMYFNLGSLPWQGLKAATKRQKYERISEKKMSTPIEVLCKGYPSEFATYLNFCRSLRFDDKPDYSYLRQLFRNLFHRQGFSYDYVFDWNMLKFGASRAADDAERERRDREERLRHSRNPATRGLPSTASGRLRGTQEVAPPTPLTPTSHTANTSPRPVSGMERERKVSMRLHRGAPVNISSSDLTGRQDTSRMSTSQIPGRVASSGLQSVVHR
UniProt P37023, sequence (whole entry, looked up): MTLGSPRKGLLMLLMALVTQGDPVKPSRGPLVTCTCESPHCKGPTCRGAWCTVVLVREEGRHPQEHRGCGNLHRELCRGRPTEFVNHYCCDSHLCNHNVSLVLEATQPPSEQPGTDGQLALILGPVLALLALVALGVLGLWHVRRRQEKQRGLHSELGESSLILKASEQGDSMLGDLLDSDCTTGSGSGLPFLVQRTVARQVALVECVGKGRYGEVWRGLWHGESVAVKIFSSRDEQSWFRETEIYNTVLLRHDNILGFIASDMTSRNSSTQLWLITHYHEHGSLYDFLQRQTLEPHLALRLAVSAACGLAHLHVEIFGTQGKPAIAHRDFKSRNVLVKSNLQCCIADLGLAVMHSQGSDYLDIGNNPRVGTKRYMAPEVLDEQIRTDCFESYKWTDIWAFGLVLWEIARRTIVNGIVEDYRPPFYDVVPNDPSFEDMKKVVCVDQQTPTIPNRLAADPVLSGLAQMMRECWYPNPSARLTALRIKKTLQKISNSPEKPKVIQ
UniProt P07947, sequence (whole entry, looked up): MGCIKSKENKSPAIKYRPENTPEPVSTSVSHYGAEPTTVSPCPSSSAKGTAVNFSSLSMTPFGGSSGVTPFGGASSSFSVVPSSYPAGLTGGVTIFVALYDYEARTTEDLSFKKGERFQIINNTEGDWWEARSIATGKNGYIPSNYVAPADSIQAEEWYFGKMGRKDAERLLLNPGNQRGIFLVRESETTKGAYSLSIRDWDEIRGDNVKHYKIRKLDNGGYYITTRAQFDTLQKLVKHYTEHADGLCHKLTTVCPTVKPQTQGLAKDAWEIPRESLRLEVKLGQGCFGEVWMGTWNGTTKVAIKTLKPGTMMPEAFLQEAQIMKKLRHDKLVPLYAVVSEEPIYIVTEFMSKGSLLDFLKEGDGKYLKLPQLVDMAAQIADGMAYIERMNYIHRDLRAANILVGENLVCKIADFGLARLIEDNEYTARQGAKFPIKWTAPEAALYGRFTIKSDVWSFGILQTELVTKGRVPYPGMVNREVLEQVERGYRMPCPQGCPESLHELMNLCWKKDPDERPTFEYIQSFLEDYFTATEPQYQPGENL
UniProt P0DMS8, sequence (whole entry, unmodified, looked up): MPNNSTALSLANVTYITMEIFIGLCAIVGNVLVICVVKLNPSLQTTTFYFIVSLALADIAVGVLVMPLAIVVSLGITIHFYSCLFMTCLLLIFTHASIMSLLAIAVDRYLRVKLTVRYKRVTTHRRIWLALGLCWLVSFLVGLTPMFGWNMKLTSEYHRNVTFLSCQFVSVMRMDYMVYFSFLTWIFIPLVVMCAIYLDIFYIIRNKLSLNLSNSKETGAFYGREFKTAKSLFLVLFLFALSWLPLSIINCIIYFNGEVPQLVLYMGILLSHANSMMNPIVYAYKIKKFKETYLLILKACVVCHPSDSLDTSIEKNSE

COc1cccc(OC)c1-c1cc(C(=O)NC2(C(=O)O)C3CC4CC(C3)CC2C4)nn1-c1ccc(C(=O)N(C)CCCN(C)CCCN(C)C(=O)CN2CCN(CC(=O)[O-])CCN(CC(=O)[O-])CCN(CC(=O)[O-])CC2)cc1C(C)C.[177Lu+3] (centres unmarked)
tracer uptake (HT-29 tumour model; host not given, pancreas; 24 h, tumour-bearing): 0.1 %ID/g

CNc1cncc(Cl)n1
pKd (CSNK1A1 (Homo sapiens, UniProt P48729); binding, SPR): < 4.30

C=CC(=O)N1CCC(COCC(=O)N2CCN(c3nc(-c4cnc(N)nc4C(F)F)nc(N4CCOC[C@@H]4C)n3)CC2)CC1
remaining binding (ACVRL1 (Homo sapiens, UniProt P37023); binding, competition with immobilised ligand; 1 µM): 100%

O=c1nc(N2CCN(CC3CCCCC3)CC2)sc2c([N+](=O)[O-])cc(C(F)(F)F)cc12
concentration (CD-1 mouse, lung; intravenous, 10 mg/kg, 4.98 min): 4210 ng/mL

Cc1cc(Nc2ccc(Cl)cc2)c2ccccc2n1
pKd (CSNK1D (Homo sapiens, UniProt P48730); binding, SPR): < 4.30

CN(C)c1ncnc2c1ncn2[C@@H]1O[C@H](CO)[C@@H](O)[C@H]1O
pEC50 (ADORA3 (Homo sapiens, UniProt P0DMS8, V169N); G protein activation, agonist): 5.25

Cc1noc(C)c1Cn1cc(N2C(=O)CN(Cc3cccc(O)c3)C2=O)cn1
concentration (male Sprague-Dawley rat, plasma; oral, 30 mg/kg, 8 h): 5.02 ng/mL

[2H]c1c([2H])c([C@]2([2H])CCCN2C(=O)C(C)(C)Oc2ccc3cn[nH]c3c2)c([2H])c([2H])c1C([2H])([2H])[2H]
remaining binding (YES1 (Homo sapiens, UniProt P07947); binding, competition with immobilised ligand; 1 µM): 61%

Excerpt of the above:
COc1cccc(OC)c1-c1cc(C(=O)NC2(C(=O)O)C3CC4CC(C3)CC2C4)nn1-c1ccc(C(=O)N(C)CCCN(C)CCCN(C)C(=O)CN2CCN(CC(=O)[O-])CCN(CC(=O)[O-])CCN(CC(=O)[O-])CC2)cc1C(C)C.[177Lu+3] (centres unmarked)
tracer uptake (HT-29 tumour model; host not given, pancreas; 24 h, tumour-bearing): 0.1 %ID/g
